{"data": "Assay results collected from several papers", "note": "Every numbered part comes from another study and shows a few of its results, in no order. Values joined by “and” are separate records of one study, mostly repeats; a detail may differ.", "sequence of UniProt P21709 (whole entry, looked up)": "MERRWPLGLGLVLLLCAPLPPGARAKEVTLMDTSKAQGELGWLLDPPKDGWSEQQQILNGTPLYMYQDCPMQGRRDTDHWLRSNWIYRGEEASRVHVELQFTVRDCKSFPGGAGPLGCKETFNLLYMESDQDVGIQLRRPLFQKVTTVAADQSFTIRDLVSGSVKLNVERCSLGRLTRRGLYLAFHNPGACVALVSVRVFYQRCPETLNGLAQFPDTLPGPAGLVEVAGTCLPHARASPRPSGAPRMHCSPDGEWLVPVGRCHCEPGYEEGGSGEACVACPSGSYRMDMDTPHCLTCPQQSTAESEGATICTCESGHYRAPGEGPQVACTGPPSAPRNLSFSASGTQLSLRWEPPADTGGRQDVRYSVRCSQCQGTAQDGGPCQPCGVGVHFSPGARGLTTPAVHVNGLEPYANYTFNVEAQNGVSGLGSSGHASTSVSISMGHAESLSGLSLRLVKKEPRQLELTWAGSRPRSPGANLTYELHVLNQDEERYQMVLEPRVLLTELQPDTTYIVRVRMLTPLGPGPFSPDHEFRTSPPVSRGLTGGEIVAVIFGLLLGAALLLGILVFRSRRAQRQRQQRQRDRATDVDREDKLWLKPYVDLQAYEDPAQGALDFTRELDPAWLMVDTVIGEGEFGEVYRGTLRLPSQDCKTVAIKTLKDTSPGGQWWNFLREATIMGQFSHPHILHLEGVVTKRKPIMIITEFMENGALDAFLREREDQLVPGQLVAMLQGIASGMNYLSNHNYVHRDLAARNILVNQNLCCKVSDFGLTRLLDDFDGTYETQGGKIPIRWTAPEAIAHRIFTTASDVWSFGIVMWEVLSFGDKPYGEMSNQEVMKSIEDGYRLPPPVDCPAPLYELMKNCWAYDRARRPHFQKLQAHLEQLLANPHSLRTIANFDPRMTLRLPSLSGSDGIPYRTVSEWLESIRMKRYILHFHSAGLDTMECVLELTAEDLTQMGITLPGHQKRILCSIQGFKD", "sequence of UniProt Q8IY84 (whole entry, looked up)": "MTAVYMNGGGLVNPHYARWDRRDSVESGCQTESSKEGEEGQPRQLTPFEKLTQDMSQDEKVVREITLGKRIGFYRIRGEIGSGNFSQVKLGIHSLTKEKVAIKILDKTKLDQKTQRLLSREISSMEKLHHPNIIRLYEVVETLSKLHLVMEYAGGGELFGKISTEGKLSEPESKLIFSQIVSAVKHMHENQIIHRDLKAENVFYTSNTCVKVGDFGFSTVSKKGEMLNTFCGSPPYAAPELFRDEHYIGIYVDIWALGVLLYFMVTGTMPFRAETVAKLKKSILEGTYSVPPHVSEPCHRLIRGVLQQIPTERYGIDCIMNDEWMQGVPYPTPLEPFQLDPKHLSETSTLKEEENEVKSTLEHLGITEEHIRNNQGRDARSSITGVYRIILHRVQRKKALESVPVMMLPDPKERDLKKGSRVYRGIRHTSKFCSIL", "sequence of UniProt Q04771 (whole entry, looked up)": "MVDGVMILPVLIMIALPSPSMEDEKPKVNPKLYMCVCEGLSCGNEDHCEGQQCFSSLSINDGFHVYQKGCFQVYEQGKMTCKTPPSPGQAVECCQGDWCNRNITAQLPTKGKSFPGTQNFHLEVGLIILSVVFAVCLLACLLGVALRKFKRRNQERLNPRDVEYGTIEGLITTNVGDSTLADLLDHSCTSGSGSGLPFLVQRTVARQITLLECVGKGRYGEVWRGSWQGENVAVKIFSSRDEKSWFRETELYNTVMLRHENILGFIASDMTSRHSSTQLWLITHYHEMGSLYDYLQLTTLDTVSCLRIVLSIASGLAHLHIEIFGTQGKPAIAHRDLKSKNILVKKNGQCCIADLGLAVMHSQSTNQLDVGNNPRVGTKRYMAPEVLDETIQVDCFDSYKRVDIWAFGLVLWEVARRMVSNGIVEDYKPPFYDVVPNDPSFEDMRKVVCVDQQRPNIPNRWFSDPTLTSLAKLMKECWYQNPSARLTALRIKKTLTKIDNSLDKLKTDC", "sequence of UniProt Q13464 (whole entry, looked up)": "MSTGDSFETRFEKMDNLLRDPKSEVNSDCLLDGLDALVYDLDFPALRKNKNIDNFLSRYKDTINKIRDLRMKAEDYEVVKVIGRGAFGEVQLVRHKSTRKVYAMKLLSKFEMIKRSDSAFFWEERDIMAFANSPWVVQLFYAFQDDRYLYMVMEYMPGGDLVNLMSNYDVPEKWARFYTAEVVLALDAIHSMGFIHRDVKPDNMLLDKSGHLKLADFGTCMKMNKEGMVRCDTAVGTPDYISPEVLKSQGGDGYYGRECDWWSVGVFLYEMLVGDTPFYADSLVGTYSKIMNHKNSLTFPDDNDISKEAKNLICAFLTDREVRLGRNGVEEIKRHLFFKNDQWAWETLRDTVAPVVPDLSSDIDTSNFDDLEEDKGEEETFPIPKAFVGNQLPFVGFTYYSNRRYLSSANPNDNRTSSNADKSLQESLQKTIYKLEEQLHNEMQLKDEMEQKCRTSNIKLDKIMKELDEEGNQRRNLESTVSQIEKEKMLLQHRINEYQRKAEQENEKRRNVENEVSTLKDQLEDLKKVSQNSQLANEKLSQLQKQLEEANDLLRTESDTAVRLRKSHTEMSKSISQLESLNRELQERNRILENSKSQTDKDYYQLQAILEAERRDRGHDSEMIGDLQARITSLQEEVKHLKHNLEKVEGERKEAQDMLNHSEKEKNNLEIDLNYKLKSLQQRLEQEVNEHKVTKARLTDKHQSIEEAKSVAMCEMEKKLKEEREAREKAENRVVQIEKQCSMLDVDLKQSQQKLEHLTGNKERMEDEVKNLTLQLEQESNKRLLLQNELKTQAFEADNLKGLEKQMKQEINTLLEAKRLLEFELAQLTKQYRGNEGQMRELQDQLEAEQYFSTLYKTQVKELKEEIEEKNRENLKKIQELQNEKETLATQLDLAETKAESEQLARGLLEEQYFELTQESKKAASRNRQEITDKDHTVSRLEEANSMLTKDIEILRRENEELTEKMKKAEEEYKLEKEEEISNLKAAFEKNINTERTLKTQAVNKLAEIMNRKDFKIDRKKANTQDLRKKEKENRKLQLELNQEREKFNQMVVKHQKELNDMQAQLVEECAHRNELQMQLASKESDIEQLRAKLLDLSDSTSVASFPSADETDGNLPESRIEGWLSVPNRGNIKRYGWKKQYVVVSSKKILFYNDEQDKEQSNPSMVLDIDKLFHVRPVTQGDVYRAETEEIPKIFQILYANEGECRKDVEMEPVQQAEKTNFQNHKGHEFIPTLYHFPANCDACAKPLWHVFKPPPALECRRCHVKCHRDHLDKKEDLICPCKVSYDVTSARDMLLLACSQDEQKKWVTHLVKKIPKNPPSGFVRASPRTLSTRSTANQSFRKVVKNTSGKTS", "sequence of UniProt O43293 (whole entry, looked up)": "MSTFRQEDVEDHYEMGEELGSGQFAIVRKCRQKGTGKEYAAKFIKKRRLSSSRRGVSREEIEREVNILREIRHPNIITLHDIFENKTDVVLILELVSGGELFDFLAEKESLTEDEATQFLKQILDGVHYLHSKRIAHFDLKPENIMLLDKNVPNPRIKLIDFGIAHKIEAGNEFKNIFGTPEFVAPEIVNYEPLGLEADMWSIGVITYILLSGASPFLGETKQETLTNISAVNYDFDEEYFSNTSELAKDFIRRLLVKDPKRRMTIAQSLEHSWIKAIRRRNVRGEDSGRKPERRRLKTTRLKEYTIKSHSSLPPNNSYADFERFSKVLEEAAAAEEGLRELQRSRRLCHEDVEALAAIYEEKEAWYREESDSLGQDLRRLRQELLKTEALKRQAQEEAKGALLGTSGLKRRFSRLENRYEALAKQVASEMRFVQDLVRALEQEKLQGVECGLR"}
{"data": "Block 1", "SMILES": "C[C@@H]1CN(c2cc(-c3n[nH]c4ccc(OC5(C)CC5)cc34)ncn2)C[C@H](C)O1", "observed": "cell-free assay", "method": "competition with immobilised ligand", "tested at": "0.1 µM"}
{"target": "ROCK1 (Homo sapiens, UniProt Q13464)", "remaining binding": "80%"}
{"target": "DAPK3 (Homo sapiens, UniProt O43293)", "remaining binding": "96%"}
{"target": "FLT3 (Homo sapiens, UniProt P36888, N841I)", "remaining binding": "46%"}
{"target": "EPHA1 (Homo sapiens, UniProt P21709)", "remaining binding": "76%"}
{"target": "NIM1K (Homo sapiens, UniProt Q8IY84)", "remaining binding": "72%"}
{"target": "MAP3K7 (Homo sapiens, UniProt O43318)", "remaining binding": "70%"}
{"target": "KIT (Homo sapiens, UniProt P10721)", "remaining binding": "82%"}
{"target": "FLT3 (Homo sapiens, UniProt P36888, ITD)", "remaining binding": "100%"}
{"target": "FGFR4 (Homo sapiens, UniProt P22455)", "remaining binding": "100%"}
{"target": "CDC42BPB (Homo sapiens, UniProt Q9Y5S2)", "remaining binding": "93%"}
{"target": "PIK3CA (Homo sapiens, UniProt P42336, I800L)", "remaining binding": "87%"}
{"target": "ACVR1 (Homo sapiens, UniProt Q04771)", "remaining binding": "90%"}
{"data": "Block 2", "target": "Ras GTPase-activating protein-binding protein 1, full length (G3BP1, Homo sapiens, UniProt Q13283)", "method": "RNA Bind-n-Seq", "form": "RNA", "sample": "in vitro", "tested at": "200 nM", "notes": "whole 134-nt RNA, ends assumed", "with": "150 mM LiCl", "reference": "input library", "direction": "higher = stronger binding", "each molecule": "7-deaza-guanosine replaces G", "sequence of UniProt Q13283 (whole entry, looked up)": "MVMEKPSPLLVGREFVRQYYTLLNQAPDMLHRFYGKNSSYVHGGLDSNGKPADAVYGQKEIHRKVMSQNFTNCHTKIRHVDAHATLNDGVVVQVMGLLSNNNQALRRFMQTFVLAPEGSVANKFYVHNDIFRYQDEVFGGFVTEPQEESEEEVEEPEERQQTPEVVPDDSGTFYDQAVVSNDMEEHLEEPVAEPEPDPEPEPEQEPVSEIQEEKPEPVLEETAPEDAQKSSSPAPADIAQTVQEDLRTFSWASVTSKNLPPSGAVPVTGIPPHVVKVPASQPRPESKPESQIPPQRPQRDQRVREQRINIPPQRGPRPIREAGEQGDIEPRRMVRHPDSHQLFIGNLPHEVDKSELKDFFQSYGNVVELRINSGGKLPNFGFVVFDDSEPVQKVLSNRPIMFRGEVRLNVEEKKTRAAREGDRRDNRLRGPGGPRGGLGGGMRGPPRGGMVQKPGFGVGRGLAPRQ"}
{"Sequence": "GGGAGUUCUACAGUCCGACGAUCCACAGACAACACGCACCCACACAGACACAGAGGGAAGGGGAAAGGAUGGGGACAGGGUGCACAGCAGGGCGGGGUAGGACCCCAGCCCCUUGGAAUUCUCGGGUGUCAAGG", "log2 enrichment": -0.864}
{"Sequence": "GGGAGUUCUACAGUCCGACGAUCUGACCCUGGUGGCAUGCGGGGAGGAAGAGGUGGCCUCAUGGAUCGUGGUGGUCCCGGUGGAAUGUUCAGAGGUGGCCGUGGUGGAGACAGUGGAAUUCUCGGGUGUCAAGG", "log2 enrichment": 0.233}
{"Sequence": "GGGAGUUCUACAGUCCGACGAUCUGGCCCUAGUGGCAUGCGGGGAGGAAGAGGUGGCCUCAUGGAUCGUGGUGGUCCCGGUGGAAUGUUCAGAGGUGGCCGUGGUGGAGACAGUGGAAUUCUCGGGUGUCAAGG", "log2 enrichment": 0.365}
{"Sequence": "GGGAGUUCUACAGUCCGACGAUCCACAGACAACACGCACCCACACAGACACAGAGGGAAGGGGUUGGGAUGGGGACAGGAUGCACAGCAGGGCGGGGUAGGACCCCAGCCCCUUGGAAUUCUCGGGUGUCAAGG", "log2 enrichment": 0.054}
{"Sequence": "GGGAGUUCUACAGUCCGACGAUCUGGGAGGUGGAUUUUGUUUAUUUUUUUAGCUCAUUUCCAGGGGUGGGAAUUUUUUUUUAAUAUGUGUCAUGAAUAAAGUUGUUUUAGAAAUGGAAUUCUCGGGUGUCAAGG", "log2 enrichment": -0.206}
{"Sequence": "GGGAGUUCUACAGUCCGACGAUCACCAUGCAGGUGGGCAUCUUUGGGAAGUGGGGCAAGGGGGGGAUCGGGAGGGGGGUAACACUUUGGGAACAGGUGGUCCCAGGUCGUUUCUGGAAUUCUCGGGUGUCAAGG", "log2 enrichment": -0.0902}
{"Sequence": "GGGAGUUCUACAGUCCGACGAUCAAGUCCUGUGCUACACAUCGUAUGUACCGAAUCGGAAAAAGGUUUGGUUUUUUUGGAAAGUAUUAUGUUACGCCGUUCGGAUCUGCACUUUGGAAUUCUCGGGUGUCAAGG", "log2 enrichment": -2.07}
{"Sequence": "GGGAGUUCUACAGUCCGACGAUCUGGGAGGUGGAUUUUGUUUAUUUUUUUAGCUCAUUUCCAGGGGUGGGAAUUUUUUUUUAAUAUCUGUCAUGAAUAAAGUUGUUUUUGAAAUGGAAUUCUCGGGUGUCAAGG", "log2 enrichment": -0.243}
{"data": "Block 3", "target": "Serine/threonine-protein kinase BRSK2 (BRSK2, Homo sapiens, UniProt Q8IWQ3)", "observed": "enzyme activity", "action": "inhibitor", "tested at": "0.5 µM", "reference": "control", "sequence of UniProt Q8IWQ3 (whole entry, looked up)": "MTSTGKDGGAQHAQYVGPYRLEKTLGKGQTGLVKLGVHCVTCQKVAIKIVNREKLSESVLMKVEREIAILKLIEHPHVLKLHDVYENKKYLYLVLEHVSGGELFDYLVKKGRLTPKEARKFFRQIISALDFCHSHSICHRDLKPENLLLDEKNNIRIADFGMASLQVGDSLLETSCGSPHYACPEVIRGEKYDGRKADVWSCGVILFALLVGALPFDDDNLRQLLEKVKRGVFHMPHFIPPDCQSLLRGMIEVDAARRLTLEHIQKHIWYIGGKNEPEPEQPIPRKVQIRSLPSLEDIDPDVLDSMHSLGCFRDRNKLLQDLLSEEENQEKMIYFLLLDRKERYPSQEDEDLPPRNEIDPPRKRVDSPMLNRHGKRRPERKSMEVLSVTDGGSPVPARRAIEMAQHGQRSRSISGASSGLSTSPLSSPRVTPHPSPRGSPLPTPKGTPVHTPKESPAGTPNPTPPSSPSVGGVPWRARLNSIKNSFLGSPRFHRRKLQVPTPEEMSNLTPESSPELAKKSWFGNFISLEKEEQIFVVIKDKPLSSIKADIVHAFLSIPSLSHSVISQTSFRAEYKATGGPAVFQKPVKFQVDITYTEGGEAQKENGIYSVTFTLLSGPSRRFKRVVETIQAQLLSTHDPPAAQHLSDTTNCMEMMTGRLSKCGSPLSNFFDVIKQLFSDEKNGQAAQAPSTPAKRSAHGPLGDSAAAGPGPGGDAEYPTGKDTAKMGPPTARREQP"}
{"SMILES": "O=c1c(-c2ccc(F)cc2)c(-c2ccncc2)[nH]n1-c1ccc(Cl)cc1", "remaining activity [%]": 90.8}
{"SMILES": "Nc1nc(Nc2ccc(S(N)(=O)=O)cc2)nn1C(=S)Nc1c(F)cccc1F", "remaining activity [%]": 9.03}
{"SMILES": "O=C1c2ccccc2-c2nc3nnnn3nc21", "remaining activity [%]": 66.7}
{"SMILES": "N#CC(c1ccnc(NCCc2cccnc2)n1)c1nc2ccccc2s1 (centres unmarked)", "remaining activity [%]": 88.1}
{"data": "Mixed results"}
{"Structure (SMILES)": "CC(C)n1cnc(-c2ccc(F)cc2)c1-c1ncc(C(=O)Nc2ccc(N3CCN(C)CC3)cc2)[nH]1", "assay": "phase 2a trial", "test system": "idiopathic pulmonary fibrosis patients", "setting": "dose not given, grade 1, arms pooled", "endpoint": "patients with CRP increased", "result": "2%"}
{"Structure (SMILES)": "COc1ccc(-c2c(Nc3ccccn3)[nH]c3c(C4=CCCCC4)c(-c4ccccc4)nn3c2=O)cc1", "test system": "human, plasma", "setting": "oral, 200 mg twice daily", "endpoint": "fluctuation", "result": "55% and 24.4% and 47.6%"}
{"note": "For quick reference, copied from above (block 2):"}
{"Sequence": "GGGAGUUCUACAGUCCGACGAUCCACAGACAACACGCACCCACACAGACACAGAGGGAAGGGGUUGGGAUGGGGACAGGAUGCACAGCAGGGCGGGGUAGGACCCCAGCCCCUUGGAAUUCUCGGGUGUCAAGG", "log2 enrichment": 0.054}
{"Sequence": "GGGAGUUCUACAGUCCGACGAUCUGGGAGGUGGAUUUUGUUUAUUUUUUUAGCUCAUUUCCAGGGGUGGGAAUUUUUUUUUAAUAUGUGUCAUGAAUAAAGUUGUUUUAGAAAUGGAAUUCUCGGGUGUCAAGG", "log2 enrichment": -0.206}
